Results of several laboratories.
Compare with care: the assays were run in different laboratories. “And” joins repeats or separate records; there may be more than shown. Numbers after ± are the reported error.

CC(=O)c1c(C)c2cnc(Nc3ccc(N4CCNCC4)cn3)nc2n(C2CCCC2)c1=O  median survival (G-Smo mice, SHH medulloblastoma; 10 mg/kg, daily P10-14 then alternate days): 16.5 days
Nc1ncnc2c1ncn2[C@@H]1O[C@@H]2COP(=O)([S-])O[C@@H]3[C@H](O)[C@@H](COP([O-])(=S)O[C@H]2[C@H]1O)O[C@H]3n1cnc2c(N)ncnc21.[Na+].[Na+] (stereo partly drawn)  complete response rate (BALB/c mouse CT26 tumour; intratumoral, 0.5 mg/kg days 9,12,15): 40%
O=C(O)/C=C/C(=O)O.Oc1cccc2[nH]cc(CCNCc3ccccc3)c12  distance travelled (C57BL/6J mice; subcutaneous, 30 mg/kg, 30 min): 869 ± 137 cm
CC(=O)c1c(C)c2cnc(Nc3ccc(C4CCN(CCS(C)(=O)=O)CC4)cn3)nc2n(C2CCCC2)c1=O  objective response rate (RECIST v1.1; HR+/HER2- advanced breast cancer patients; 100 mg twice daily, phase Ib monotherapy arm): 6.7%
CCCC[C@H](NC(=O)[C@@H]1CCCN1C(=O)c1coc(C)n1)C(=O)N[C@@H](CC(C)C)C(=O)NC(C)(C)C(=O)N[C@@H](CC(C)C)C(=O)N[C@@H](CC(C)C)C(=O)NC(C)(C)C(=O)NC(C)(C)C(=O)NCCC(=O)NC1(CN(C)C)CCC1  calcein leakage (small unilamellar vesicles; concentration not given): 0%
C[C@]12CC[C@H](O)C[C@H]1CC[C@@H]1[C@@H]2CC[C@]2(C)[C@@H](c3ccc(=O)oc3)CC[C@]12O  tumour volume (female nude mouse LCC2 xenograft; 0.5 mg/kg, day 17, tamoxifen-resistant): 86.8 mm3 and 121 mm3 and 134 mm3 and 76.6 mm3 and 128 mm3 and 84.2 mm3 and 109 mm3
COc1ncc(-c2nc3c(n2C(C)C)[C@H](c2ccc(Cl)cc2)N(c2cc(Cl)cn(C)c2=O)C3=O)c(OC)n1  best overall response (antileukemic activity, refers to: treatment failure, resistant disease; human, acute myeloid leukaemia; 45 mg, low-dose, RDE): 59.3%
CC[C@H](C)[C@@H]1NC(=O)[C@@H]2CCCN2C(=O)[C@H](CC(C)C)NC(=O)[C@H](CC(C)C)NC(=O)CNC(=O)[C@@H](NC(=O)[C@@H](NC(=O)[C@H](CC(=O)O)NC(=O)CNC(=O)[C@@H](NC(=O)[C@H](C)NC(=O)CNC(=O)[C@H](CCCCN)NC(=O)[C@H](CC(C)C)NC(=O)[C@H](CC(C)C)NC(=O)[C@H](CCCCN)NC(=O)CNC(=O)[C@@H](NC(=O)[C@@H](N)CC(C)C)C(C)C)C(C)C)C(C)C)CSSC[C@@H](C(=O)O)NC1=O  log2 fold change (RNA-seq, refers to: Rab20; mouse, traumatic brain injury model, frontal cortex and hippocampus; dose not given; baseline: TBI alone): -2.92
c1ccc2c(c1)Nc1ccccc1S2  tumour volume (CT26 tumour-bearing mice; intraperitoneal, 100 mg/kg equivalents daily, day 2): 277 mm³
CN1CCN(S(=O)(=O)c2cc([N+](=O)[O-])ccc2N(CCOS(C)(=O)=O)CCOS(C)(=O)=O)CC1  event-free survival (NSG mice, T-ALL PDX sample E; intraperitoneal, 25 mg/kg, single mouse trial): > 272 days
C[C@]1(CO)Cc2ncn(-c3ccc(C#N)c(Cl)c3)c2C(=O)O1  urinary excretion (aldosterone synthesis, inhibitor, refers to: cortisol; healthy Japanese adults, urine; 3 mg, 0-24 h at steady state, multiple rising dose): 84 mmol
Cc1cccc(C)c1NC(=O)C1CCCCN1 (stereo not drawn)  sensory block duration (Sprague-Dawley rat, male, sciatic nerve; 22.5 mM): 34.5 ± 14.9 min
CCCCC/C=C\C/C=C\C/C=C\C/C=C\CCCC(=O)NCCO  duration of effect (mechanical hypersensitivity, electronic von Frey; male CD1 mouse, CFA inflammatory pain; i.p., 20 mg/kg; baseline: vehicle): 10 to 60 min
C[C@H]1O[C@@H](O[C@H]2CC[C@@]3(C)[C@@H](CC[C@]4(C)[C@@H]3C=C[C@]35OC[C@@]6(CCC(C)(C)C[C@H]63)[C@@H](O)C[C@]54C)[C@]2(C)CO)[C@H](O)[C@@H](O[C@@H]2O[C@H](CO)[C@@H](O)[C@H](O)[C@H]2O)[C@H]1O  hepatic triglycerides (mouse, no ethanol, AAV8-TBG-Null, liver; dose not given, high dose): 0.0599 mmol/g protein and 0.0253 mmol/g protein and 0.0433 mmol/g protein and 0.0396 mmol/g protein and 0.0644 mmol/g protein and 0.0573 mmol/g protein
CCCCC1(CCCC)CN(c2ccccc2)c2cc(SC)c(OCC(=O)N[C@@H](C(=O)NCC(=O)O)c3ccccc3)cc2S(=O)(=O)C1  serum HDL-C (refers to: HDL cholesterol; human, serum; 15 mg once daily, day 9): 45 mg/dL
Cc1cn(-c2cc(NC(=O)c3ccc(C)c(Nc4nccc(-c5cccnc5)n4)c3)cc(C(F)(F)F)c2)cn1  NPI caregiver distress score (Homo sapiens; 150 mg, 6 months; direction not given): 2.7 ± 3.7
CCCCC/C=C\C/C=C\C/C=C\C/C=C\CCCC(=O)NCCO  licking score (mouse, formalin paw test; intraperitoneal, 5 mg/kg, 5 min after formalin, late phase; direction not given): 12
N.N.[Cl][Pt][Cl]  tumour volume (KSN/Slc nude mice, SAS xenograft; dose not given, day 0): 71.7 mm3 and 55.4 mm3 and 75.8 mm3 and 44 mm3 and 74.1 mm3 and 97.5 mm3 and 81.1 mm3 and 41.3 mm3

Excerpt of the above:
COc1ncc(-c2nc3c(n2C(C)C)[C@H](c2ccc(Cl)cc2)N(c2cc(Cl)cn(C)c2=O)C3=O)c(OC)n1  best overall response (antileukemic activity, refers to: treatment failure, resistant disease; human, acute myeloid leukaemia; 45 mg, low-dose, RDE): 59.3%
